Published values gathered from unrelated publications.
± marks the error that the study gave. Values after ≈ are worked out from the molar mass of the structure shown.

Compound | test | system | conditions | how to read | endpoint | value
CNC(C)Cc1ccc2c(c1)OCO2 (stereo not shown) | seizure incidence | C57Bl/6J mice, both sexes | intraperitoneal, 2 h, dose as base | – | ED50 | 116 mg/kg
CN(C)C[C@H]1CCCC[C@]1(O)c1cccc(O)c1 | visual analog scale | healthy non-drug abusers | oral, 20 mg, unit not given | baseline: placebo | take drug again | -6
Cc1ncc2n1-c1ccc(Cl)cc1C(c1ccccc1F)=NC2 | – | human CYP3A5*1/*1, serum | geometric mean, with: ketoconazole 400 mg | – | terminal half-life | 8.83 h
CN(C)CCc1c[nH]c2ccccc12 | metabolic stability | human, hepatocytes | 3.1 µM | – | half-life | 1.6 h
CNC(C)Cc1ccc2c(c1)OCO2 (racemic) | – | human | oral, 0.75 mg/kg, mean over session, unit not given | baseline: pre-dose baseline | change in systolic blood pressure | 14.5
CN1CC[C@@]23CCCC[C@@H]2[C@@H]1Cc1ccc(O)cc13 | – | Wistar rat, both sexes, plasma | oral, 5 mg/kg DEM, DEM 2 h after pretreatment, with: TCE 100 mg/kg single pretreatment | – | AUC(0-inf) | 74.5 ± 38.8 ng·h/mL
NCC1(CC(=O)O)CCCCC1 | in situ brain perfusion | CF-1 mouse, wild type, male | 1 µM, pH 7.4 | – | brain uptake clearance Kin | 15 mL/100 g/min
Cc1ncc2n1-c1ccc(Cl)cc1C(c1ccccc1F)=NC2 | – | human liver microsomes | 1.0 µM, without NADPH | – | intrinsic clearance | < 1 µL/min/mg
C[C@H]1CNCCc2ccc(Cl)cc21 | – | Sprague-Dawley rat, male, plasma | subcutaneous, 0.5 mg/kg, 180 min | – | plasma concentration | 3.03 ± 0.18 ng/mL
CN[C@@H](C)Cc1ccccc1 | – | C57BL/6 mouse | intraperitoneal, single dose | – | LD50 | 105 mg/kg
CC(=O)NNC(=O)c1ccncc1 | – | rabbit caseum | 5 µM, 4 h, 37 °C | – | fraction unbound | > 99.9%
CC1N=C(c2ccccc2F)c2cc(NC3CCCCC3)ccc2NC1=O (stereo not shown) | shake flask | PBS | 24 h, pH 7.4 | – | solubility | 21.4 µM (≈ 7.82 µg/mL)
N[C@]1(c2ccccc2Cl)CC[C@@H](O)CC1=O | – | female CD-1 mice, plasma | intraperitoneal, 5 mg/kg | – | dose-normalized Cmax | 405 ± 10.6 ng/mL per mg/kg
CC(=O)NC[C@H]1CN(c2ccc(N3CCOCC3)c(F)c2)C(=O)O1 | – | THP-1 caseum surrogate | 5 µM, 4 h, 37 °C | – | fraction unbound | 0.279 ± 0.022
CCC(=O)C(CC(C)N(C)C)(c1ccccc1)c1ccccc1 (stereo not shown) | – | human, plasma | oral, 40 mg, day 1, steady state, dose-normalized, alone | – | AUC(0-tau) | 5700 ng·h/mL
C=C1C[C@@H]2[C@H](CC[C@]3(C)C(=O)CC[C@@H]23)[C@@]2(C)C=CC(=O)C=C12 | LC-MS/MS | postmenopausal breast cancer women, plasma | oral, 25 mg/day, 2 h, AST or ALT over 40 | – | median plasma concentration | 11 ng/mL
CN([11CH3])C(=O)C(CCN1CCC(O)(c2ccc(Cl)cc2)CC1)(c1ccccc1)c1ccccc1 | ultrafiltration | rhesus monkey (Macaca mulatta), arterial plasma | room temperature | – | plasma free fraction | 0.154 ± 0.018

Compound | test | system | conditions | how to read | endpoint | value
Cc1ncc(OC[C@@]2(c3cccc(F)c3)C[C@H]2C(=O)Nc2ccc(F)cn2)c(C)n1 | – | healthy human | 10 mg, with: itraconazole | – | treatment-related adverse events | 6.7%
C[C@]1(COc2ccc(N3CCC(Oc4ccc(OC(F)(F)F)cc4)CC3)cc2)Cn2cc([N+](=O)[O-])nc2O1 | – | THP-1 caseum surrogate | 5 µM, 4 h, 37 °C | – | fraction unbound | 0.0002 ± 2e-05
CCCC(C(=O)c1ccc(O)c(O)c1)N1CCCC1 (stereo not shown) | – | human plasma | 25 µg/L, 24 h, Medium QC, room temperature | baseline: freshly fortified plasma | stability | 3.8 % difference
N[C@@]1(c2ccccc2Cl)CCC[C@@H](O)C1=O | – | Wistar rat, plasma | intraperitoneal, 40 mg/kg, up to 48 h, single dose | – | plasma concentration | ≥ 5 ng/mL
CS(=O)(=O)N1CCC(Oc2ccc(CC(=O)N3CCC(N4C(=O)CCc5ccccc54)CC3)c(OC/C=C/[125I])c2)CC1 | radio-HPLC, refers to: free iodide-125 | 10% ethanol in saline | 45 days, storage stability | – | decomposition | 15 to 20%
CN1C(=O)CC(=O)N(c2ccccc2)c2cc(Cl)ccc21 | – | mouse wild-type and Scn1a+/−, plasma | intraperitoneal, 10 mg/kg, single dose | – | Cmax | 2400 ng/mL
CC(=O)NC[C@H]1CN(c2ccc(N3CCSCC3)c(F)c2)C(=O)O1 | – | THP-1 caseum surrogate | 5 µM, 4 h, 37 °C | – | fraction unbound | 0.217 ± 0.017
CCCC(C(=O)c1ccc2c(c1)OCO2)N1CCCC1 (stereo not shown) | – | human plasma | 0.75 µg/L, 24 h, Low QC, room temperature | baseline: freshly fortified plasma | stability | 10.7 % difference
COC(=O)[C@@H](NC(=O)c1nn(Cc2ccc(F)cc2)c2ccccc12)C(C)C | HPLC | rat liver microsomes | 1.15 µg/mL, 12.5 min, without NADPH, 1 mg/mL protein | baseline: no microsomes | metabolism | ~50%
CCCCCCCCCCC(=O)O[C@H]1CC[C@H]2[C@@H]3CCC4=CC(=O)CC[C@]4(C)[C@H]3CC[C@]12C | – | human blood | 300 ng/mL, 30 min, 4 °C, NaF 5 mg/mL, K2 oxalate 4 mg/mL | – | testosterone concentration | 388 ng/dL
N[C@]1(c2ccccc2Cl)C[C@H](O)CCC1=O | – | female CD-1 mice, plasma | intraperitoneal, 5 mg/kg | – | dose-normalized Cmax | 133 ± 8.9 ng/mL per mg/kg
CNC(C)C(=O)c1ccc(C)cc1 (stereo not shown) | seizure incidence | C57Bl/6J mice, both sexes | intraperitoneal, 2 h, dose as salt | – | ED50 | 124 mg/kg
COc1ccc2c(c1)[C@]13CCCC[C@@H]1[C@H](C2)N(C)CC3 | – | Wistar rat, both sexes, plasma | oral, 5 mg/kg, 2 h after pretreatment, with: single TCE 400 mg/kg | – | MRT(0-inf) | 2.91 ± 0.82 h
CC(C)CC(CN)CC(=O)O (stereo not shown) | neuromuscular coordination | Wistar rat male | oral, 10 mg/kg, 3 h | – | performance time | 125 s
C[C@]12CC[C@H]3[C@@H](CCC4=CC(=O)CC[C@@]43C)[C@@H]1CC[C@@H]2O | – | EpiDerm-200-X reconstructed epidermis | 6 nmol/cm^2, 6 h, 32 °C, 100% ethanol vehicle | – | cumulative permeation | 2.99 ± 0.31 nmol/cm²
N[C@@]1(c2ccccc2Cl)CCC[C@H](O)C1=O | – | male CD-1 mice, plasma | intraperitoneal, 5 mg/kg | – | dose-normalized Cmax | 189 ± 23 ng/mL per mg/kg
Cc1ncc2n1-c1ccc(Cl)cc1C(c1ccccc1F)=NC2 | – | healthy volunteers, plasma | oral, 7.5 mg single dose, day 1, geometric mean, alone | – | AUC | 92.5 ng·h/mL

Excerpt of the above:
Compound | test | system | conditions | how to read | endpoint | value
CCCCCCCCCCC(=O)O[C@H]1CC[C@H]2[C@@H]3CCC4=CC(=O)CC[C@]4(C)[C@H]3CC[C@]12C | – | human blood | 300 ng/mL, 30 min, 4 °C, NaF 5 mg/mL, K2 oxalate 4 mg/mL | – | testosterone concentration | 388 ng/dL
N[C@@]1(c2ccccc2Cl)CCC[C@H](O)C1=O | – | male CD-1 mice, plasma | intraperitoneal, 5 mg/kg | – | dose-normalized Cmax | 189 ± 23 ng/mL per mg/kg
COC(=O)[C@@H](NC(=O)c1nn(Cc2ccc(F)cc2)c2ccccc12)C(C)C | HPLC | rat liver microsomes | 1.15 µg/mL, 12.5 min, without NADPH, 1 mg/mL protein | baseline: no microsomes | metabolism | ~50%
CCCC(C(=O)c1ccc2c(c1)OCO2)N1CCCC1 (stereo not shown) | – | human plasma | 0.75 µg/L, 24 h, Low QC, room temperature | baseline: freshly fortified plasma | stability | 10.7 % difference
